Measured values gathered from unrelated publications.
Protocols differ between the studies behind these lines. ± marks the error that the study gave.
Organism: SARS-CoV-2

Cc1oc2nc1C(=O)N[C@](C)(C(=O)NCCc1ccc(N3CCCCC3)cc1)c1nc(c(C)o1)C(=O)N[C@](C)(C(=O)NCCc1ccc(N3CCCCC3)cc1)c1nc(c(C)o1)C(=O)N[C@]2(C)C(=O)NCCc1ccc(N2CCCCC2)cc1  IC50 (viral replication; Vero E6, NRC-03-nhCoV; 72 h): 61700 nM
CC=CCCCCOP(=O)(O)Oc1c2c(c(OP(=O)(O)OCCCCC=CC)c3c1C1CC3c3cc4c(cc31)C1CC4c3ccccc31)C1CC2c2cc3c(cc21)C1CC3c2ccccc21  IC50 (spike pseudoparticle entry; Caco-2): 14000 nM
COc1ccc2nc3ncccc3c(Nc3ccc(O)c(CN4CCCC4)c3)c2c1  IC50 (viral replication; U2OS, BetaCoV/France/IDF0372/2020): 1960 nM
CC1OC(OC2C(OC(=O)C34CCC(C)(C)CC3C3=CCC5C6(C)CCC(OC7OC(CO)C(O)C(O)C7O)C(C)(C)C6CCC5(C)C3(C)CC4O)OCC(O)C2O)C(O)C(O)C1OC1OCC(O)C(OC2OCC(O)C(OC3OCC(O)C(O)C3O)C2O)C1O (centres unmarked)  IC50 (pseudovirus cell entry, luciferase reporter; NCI-H1299 ACE2-expressing; 24 h): 650 nM
CCc1nc(C(N)=O)c(Nc2ccc(N3CCC(N4CCN(C)CC4)CC3)c(OC)c2)nc1NC1CCOCC1  IC50 (viral replication; Huh-7; 48 h): 225 nM
COc1ccc2nc3ccc(C(F)(F)F)cc3c(Nc3cc(CN4CCCC4)c(O)c(CN4CCCC4)c3)c2c1  IC50 (viral replication; U2OS, BetaCoV/France/IDF0372/2020): 440 nM
CCC(CC)COC(=O)[C@H](C)N[P@](=O)(OC[C@H]1O[C@@](C#N)(c2ccc3c(N)ncnn23)[C@H](O)[C@@H]1O)Oc1ccccc1  IC50 (viral replication, RT-qPCR, measured: viral RNA in supernatant; Calu-3, SA): 45 nM
O=P(O)(OCc1cccc2ccccc12)Oc1c2c(c(OP(=O)(O)OCc3cccc4ccccc34)c3c1C1CC3c3cc4c(cc31)C1CC4c3ccccc31)C1CC2c2cc3c(cc21)C1CC3c2ccccc21  IC50 (spike pseudoparticle entry; Caco-2): 2400 nM
COc1ccc2nc3ccc(Cl)cc3c(Nc3cc(CN4CCCC4)c(O)c(CN4CCCC4)c3)c2c1  IC50 (viral replication; U2OS, BetaCoV/France/IDF0372/2020): 1880 nM
CC(C)CC(=O)OC1C=CC=CC(=O)OC2C(C)CC3C2(O)C(O)C2(CO)OC2C2C4OC5(c6ccccc6)OC(C(C)C23O5)C4(O)C(C)(O)CC2CCC1C2C (centres unmarked)  IC50 (viral replication; Vero E6): 1.7 nM
CC1(C)CC[C@]2(C(=O)O[C@@H]3OC[C@@H](O)[C@H](O[C@@H]4OC[C@@H](O)[C@H](O)[C@H]4O)[C@H]3O)CC[C@]3(C)C(=CC[C@@H]4[C@@]5(C)CC[C@H](O[C@@H]6O[C@H](CO)[C@@H](O)[C@H](O)[C@H]6O)C(C)(C)[C@@H]5CC[C@]43C)[C@@H]2C1  IC50 (pseudovirus cell entry, luciferase reporter; NCI-H1299 ACE2-expressing; 24 h): 7590 nM
COc1cc2c(cc1O)CCN[C@]21CS[C@@H]2c3c(OC(C)=O)c(C)c4c(c3[C@H](COC1=O)N1[C@@H]2[C@H]2c3c(cc(C)c(OC)c3O)C[C@@H]([C@@H]1C#N)N2C)OCO4  IC50 (viral replication, RT-qPCR, measured: viral RNA in supernatant; Calu-3, RIM-1): 1.84 nM
CC1(C)CC[C@]2(C(=O)O[C@@H]3OC[C@@H](O)[C@H](O[C@@H]4OC[C@@H](O)[C@H](O[C@@H]5OC[C@@H](O)[C@H](O[C@@H]6OC[C@@H](O)[C@H](O)[C@H]6O)[C@H]5O)[C@H]4O)[C@H]3O)CC[C@]3(C)C(=CC[C@@H]4[C@@]5(C)CC[C@H](O[C@@H]6O[C@H](CO)[C@@H](O)[C@H](O)[C@H]6O)C(C)(C)[C@@H]5CC[C@]43C)[C@@H]2C1  IC50 (pseudovirus cell entry, luciferase reporter; NCI-H1299 ACE2-expressing; 24 h): 8840 nM
[N-]=[N+]=NCCOP(=O)(O)Oc1c2c(c(OP(=O)(O)OCCN=[N+]=[N-])c3c1C1CC3c3cc4c(cc31)C1CC4c3ccccc31)C1CC2c2cc3c(cc21)C1CC3c2ccccc21  IC50 (spike pseudoparticle entry; Caco-2): 37400 nM
COc1ccc2nc3ccc(F)cc3c(Nc3ccc(O)c(CN4CCCC4)c3)c2c1  IC50 (viral replication; U2OS, BetaCoV/France/IDF0372/2020): 1910 nM
C=CCCCOP(=O)(O)Oc1c2c(c(OP(=O)(O)OCCCC=C)c3c1C1CC3c3cc4c(cc31)C1CC4c3ccccc31)C1CC2c2cc3c(cc21)C1CC3c2ccccc21  IC50 (spike pseudoparticle entry; Caco-2): 6000 nM
Oc1c(CN2CCCC2)cc(Nc2c3ccc(Cl)cc3nc3ccc(Cl)cc23)cc1CN1CCCC1  IC50 (viral replication; U2OS, BetaCoV/France/IDF0372/2020): 570 nM
CCCCCCCOP(=O)(O)Oc1c2c(c(OP(=O)(O)OCCCCCCC)c3c1C1CC3c3cc4c(cc31)C1CC4c3ccccc31)C1CC2c2cc3c(cc21)C1CC3c2ccccc21  IC50 (spike pseudoparticle entry; Caco-2): 1000 nM
Cc1ccc(N2CC3CC(C2)N3C)cc1C(=O)NC1(c2ccc3c4c(cccc24)C(=O)N3C)CC1  IC50 (viral replication; Vero C1008, XBB.1): 63 ± 6.2 nM
C#CCCOP(=O)(O)Oc1c2c(c(OP(=O)(O)OCCC#C)c3c1C1CC3c3cc4c(cc31)C1CC4c3ccccc31)C1CC2c2cc3c(cc21)C1CC3c2ccccc21  IC50 (pseudoparticle entry; Caco-2): 11300 nM
Cc1cn2nc([C@@H]3CCCCN3C(=O)c3cc(Cl)ccc3NS(C)(=O)=O)cc2nc1N1CC[C@H](N)C1  IC50 (viral replication; Vero E6, wild type): 2810 nM
CCCCCCCCOP(=O)(O)Oc1c2c(c(OP(=O)(O)OCCCCCCCC)c3c1C1CC3c3cc4c(cc31)C1CC4c3ccccc31)C1CC2c2cc3c(cc21)C1CC3c2ccccc21  IC50 (spike pseudoparticle entry; Caco-2): 14900 nM
Cc1oc2nc1C(=O)N[C@](C)(C(=O)NCCc1ccc(N(C)C)cc1)c1nc(c(C)o1)C(=O)N[C@](C)(C(=O)NCCc1ccc(N(C)C)cc1)c1nc(c(C)o1)C(=O)N[C@]2(C)C(=O)NCCc1ccc(N(C)C)cc1  IC50 (viral replication; Vero E6, NRC-03-nhCoV; 72 h): 63300 nM

Repeated from above:
Oc1c(CN2CCCC2)cc(Nc2c3ccc(Cl)cc3nc3ccc(Cl)cc23)cc1CN1CCCC1  IC50 (viral replication; U2OS, BetaCoV/France/IDF0372/2020): 570 nM
Cc1oc2nc1C(=O)N[C@](C)(C(=O)NCCc1ccc(N(C)C)cc1)c1nc(c(C)o1)C(=O)N[C@](C)(C(=O)NCCc1ccc(N(C)C)cc1)c1nc(c(C)o1)C(=O)N[C@]2(C)C(=O)NCCc1ccc(N(C)C)cc1  IC50 (viral replication; Vero E6, NRC-03-nhCoV; 72 h): 63300 nM
